Published values gathered from unrelated publications.
Lines come from different studies, so protocols differ. pIC50: −log10 of the molar value.
Cell line: HaCaT

Under “cells, SA-β-gal positive”, `CC(=O)N[C@@H](CC(=O)O)C(=O)N[C@@H](CCC(=O)O)C(=O)N[C@@H](CCC(=O)O)C(=O)N[C@H](C(=O)NCC(=O)N[C@@H](CCC(=O)O)C(=O)N[C@@H](Cc1ccc(O)cc1)C(=O)O)[C@@H](C)O` is recorded as “decreased” (concentration not given, together with: UVA).
`O=C(C[Se]C(=O)c1cc2ccccc2s1)Nc1cccc(C(F)(F)F)c1` gave a pIC50 of 4.49 (cell growth or viability, MTS; 48 h).
For `COc1cc(/C=C/C(=O)Oc2cc(C(F)(F)F)ccc2C(F)(F)F)ccc1O`, protein level read “decreased” (Western blot, measured: SRD5A1; 10 and 15 µM, 24 h; baseline: control).
The pIC50 of `[BH3-][P+]1(c2ccccc2)CCCCC1` is reported as less than 4.00 (cell growth or viability, MTT; 72 h).
For `CO[C@@H]1[C@@H](OC(=O)c2ccc(C)[nH]2)[C@@H](O)[C@H](Oc2ccc3c(O)c(NC(=O)c4c[nH]c(C(=O)Nc5c(O)c6ccc(O[C@@H]7OC(C)(C)[C@H](OC)[C@@H](OC(=O)c8ccc(C)[nH]8)[C@H]7O)c(C)c6oc5=O)c4C)c(=O)oc3c2C)OC1(C)C`, the pIC50 was roughly 4.82 (cell growth or viability, ATP luminescence; 72 h).
`CCOC(=O)c1cn(CC(c2c[nH]c3cc(Br)ccc23)c2c[nH]c3cc(Br)ccc23)c(C)c1C(=O)OC` gave an inhibition of 11.8% (cell growth or viability, MTS; 20 µM, 24 h).
With `O=C(C[Se]C(=O)c1cccnc1Nc1cccc(C(F)(F)F)c1)Nc1cccc(C(F)(F)F)c1` the pIC50 was 4.54 (cell growth or viability, MTS; 48 h).
`[BH3-][P+]1(C2CCCCC2)CCCCC1` gave a pIC50 of 4.02 (cell growth or viability, MTT; 72 h).
`CCOC(=O)c1c(C(=O)OC)cn(CC(c2cn(C)c3ccccc23)c2cn(C)c3ccccc23)c1C` gave an inhibition of 17.8% (cell growth or viability, MTS; 20 µM, 24 h).
`CC(=O)N[C@@H](CC(=O)O)C(=O)N[C@H](C(=O)N[C@@H](CCC(=O)O)C(=O)N[C@H](C(=O)NCC(=O)N[C@@H](CCC(=O)O)C(=O)N[C@H](C(=O)O)C(C)C)[C@@H](C)O)C(C)C`: AP1 phosphorylation “inhibited” (western blot; concentration not given, together with: UVA).

Excerpt of the above:
Under “cells, SA-β-gal positive”, `CC(=O)N[C@@H](CC(=O)O)C(=O)N[C@@H](CCC(=O)O)C(=O)N[C@@H](CCC(=O)O)C(=O)N[C@H](C(=O)NCC(=O)N[C@@H](CCC(=O)O)C(=O)N[C@@H](Cc1ccc(O)cc1)C(=O)O)[C@@H](C)O` is recorded as “decreased” (concentration not given, together with: UVA).
